Values quoted from earlier work that unrelated publications cite.
Lines come from different studies, so protocols differ. ± marks the error that the study gave.

| SMILES | cell line | test | setting | scale | quantity | value |
| --- | --- | --- | --- | --- | --- | --- |
| CS(=O)(=O)N(Cc1ccco1)CC(O)Cn1c2ccccc2c2ccccc21 (stereo not drawn) | glioma stem cells | Per2 repression, measured: Per2 |  |  | IC50? | < 10 µM |
| C[C@@H](Nc1c(-c2c(F)cc(C#CCCN)cc2F)c(Cl)nc2ncnn12)C(C)(C)C | HEK293 |  | 1 µM, 4 h, unit not given | reference: vehicle (DMSO) | total α-tubulin level | 0.96 ± 0.026 |
| COc1ccc(Cn2cc3c(c2-c2cc(OC)c(OC)c(OC)c2)CCc2cnoc2-3)cc1OC | multidrug-resistant cells |  | concentration not given, with: paclitaxel |  | potentiation | 80.5% |
| CNCCCOc1cc(F)c(-c2c(Cl)nc3ncnn3c2NCC(F)(F)F)c(F)c1 | HEK293 |  | 10 µM, 4 h, unit not given | reference: vehicle (DMSO) | acetylated α-tubulin level | 1.81 ± 0.38 |
| O=C1NCCN1CC(O)Cn1c2ccc(F)cc2c2cc(F)ccc21 (stereo not drawn) | GSC | cell viability |  |  | EC50 | 8.5 µM |
| CCC1=C(C)C2=C(c3ccc([P+](C)(C4CCCCC4)C4CCCCC4)cc3)c3c(C)c(CC)c(C)n3[B-](C)(C)[N+]2=C1C | MCF7 | mitochondrial depolarisation response |  |  | fluorescence intensity decrease | > 70% |
| O=C1c2ccccc2-c2c1c1ccccc1c(=O)n2C[C@H](O)[C@@H](O)[C@H](O)[C@H](O)CO | 60 cancer cell lines | cell growth | 10 µM |  | mean growth | 97.2% |
| CN(C)CCCOc1cc(F)c(-c2c(Cl)nc3ncnn3c2NCC(C)(C)C)c(F)c1 | HEK293 |  | 10 µM, 4 h, unit not given | reference: vehicle (DMSO) | total α-tubulin level | 0.73 ± 0.07 |
| O=C1c2ccccc2-c2c1c1ccc([N+](=O)[O-])cc1c(=O)n2C[C@H](O)CO | 60 human cancer cell lines | cell growth |  |  | mean GI50 | 0.156 ± 0.061 µM |
| CC(=O)O[C@H]1C2=C(C(=O)C(O)=C(C(C)C)C2=O)[C@@]2(C)CCCC(C)(C)[C@@H]2[C@@H]1O | MCF7 |  |  |  | GI50 | 6.4 ± 0.4 µM |
| Cc1c(C(=O)NNC(=S)Nc2ccc(Cl)cc2)nnn1Cc1nc2ccccc2[nH]1 | WI-38 and MCF7 |  |  | reference: WI-38 over MCF7 | selectivity index | 5.76 |
| CN(C)CCCOc1cc(F)c(-c2c(Cl)nc3ncnn3c2NCC2(C)N=N2)c(F)c1 | HEK293 |  | 10 µM, 4 h, unit not given | reference: vehicle (DMSO) | acetylated α-tubulin level | 0.29 ± 0.03 |
| COc1ccc(S(=O)(=O)N(C)C)cc1N1CCN(C(=O)c2ccc(F)cc2C(F)(F)F)CC1 | dopamine neurons |  | with: MPP+ |  | neuroprotective concentration | 1 µM |
| CC(C)C[C@@H]1NC(=O)[C@H](C(C)C)NC(=O)[C@H](CCCNC(=N)N)NC(=O)[C@@H](N)CSSC[C@@H](C(=O)O)NC(=O)[C@H](CO)NC(=O)CNC(=O)[C@H](CO)NC(=O)[C@H](CCCNC(=N)N)NC1=O | RAW264.7 |  | concentration not given |  | cell binding | binds |
| O=C1c2ccccc2-c2c1c1ccc([N+](=O)[O-])cc1c(=O)n2C[C@H](O)[C@@H](O)[C@H](O)[C@H](O)CO | 60 human cancer cell lines | cell growth |  |  | mean GI50 | 4.6 ± 0.53 µM |
| C[C@H](Nc1c(-c2c(F)cc(OCCCN)cc2F)c(Cl)nc2ncnn12)C(F)(F)F | HEK293 |  | 1 µM, 4 h, unit not given | reference: vehicle (DMSO) | total α-tubulin level | 0.42 ± 0.02 |
| CCCCCCCCCCCCCCOc1c(O)cc(C(=O)O[C@@H]2Cc3c(O)cc(O)cc3O[C@@H]2c2cc(O)c(O)c(O)c2)cc1O | A-431 | inhibitor, measured: EGFR | concentration not given, with: EGF |  | phosphorylation | inhibited |
| CNCCCOc1cc(F)c(-c2c(Cl)nc3ncnn3c2N[C@@H](C)C(F)(F)F)c(F)c1 | HEK293 |  | 1 µM, 4 h, unit not given | reference: vehicle (DMSO) | total α-tubulin level | 0.49 ± 0.05 |
| O=C(/C=C/c1ccc(Cl)cc1)N1CCC2(CC1)CN(Cc1ccc(Cl)c(Cl)c1)C(=O)O2 | B cells overexpressing EBI2 | inhibitor | concentration not given |  | cell proliferation | inhibited |
| Cc1ccc(C(C)C)cc1.O=C(N=P(c1ccccc1)(c1ccccc1)c1ccccc1)c1ccccn1.[Cl-].[Cl][Ru+] | Jurkat | measured: phosphatidylserine exposure | concentration not given |  | apoptotic cells | 80% |
| Oc1cccc(-c2cccc(O)n2)n1.[Cl-].[Cl-].[Ru+2].c1cnc2c(c1)c1c(c3cccnc32)OCCO1.c1cnc2c(c1)c1c(c3cccnc32)OCCO1 | HeLa |  |  | reference: dark IC50 over light IC50 | phototoxicity index | 6 |
| O=C(Nc1cc2nc(-c3ccc(F)c(F)c3)cn2cn1)N1CC[C@H](F)C1 | CRL-8155 |  |  |  | EC50 | > 50 µM |
| CN(C)CCCOc1cc(F)c(-c2c(Cl)nc3ncnn3c2NCC2(C)CC2)c(F)c1 | HEK293 |  | 1 µM, 4 h, unit not given | reference: vehicle (DMSO) | total α-tubulin level | 0.84 ± 0.12 |
| CN(CCOCCOCCOCCNc1cccc2c1C(=O)N(C1CCC(=O)NC1=O)C2=O)CC[C@H](CSc1ccccc1)Nc1ccc(S(=O)(=O)NC(=O)c2ccc(N3CCN(CC4=C(c5ccc(Cl)cc5)CCC(C)(C)C4)CC3)cc2)cc1S(=O)(=O)C(F)(F)F (stereo partly drawn) | MOLT-4 cells, human platelets |  |  | reference: MOLT-4 over platelets | selectivity ratio | > 100 fold |
| CC[C@H](C)[C@@H]1NC(=O)[C@H](CC(=O)O)NC(=O)[C@H](CC(=O)O)NC(=O)CNC(=O)[C@@H]2CCCN2C(=O)[C@H](CC(=O)O)NC(=O)[C@H](Cc2ccc(O)cc2)NC(=O)[C@H]([C@@H](C)CC)NC(=O)[C@H](CCC(=O)O)NC(=O)[C@H](CCCCN)NC1=O | Caco-2 and Jurkat | cell adhesion | 180 µM | reference: control peptide | inhibition | ~70% |
| Oc1cccc(-c2cccc(O)n2)n1.[Cl-].[Cl-].[Ru+2].c1cnc2c(c1)ccc1cccnc12.c1cnc2c(c1)ccc1cccnc12 | HeLa |  |  | reference: dark IC50 over light IC50 | phototoxicity index | 3.8 |
| O=C1c2ccccc2-c2c1c1ccccc1c(=O)n2C[C@@H](O)[C@H](O)[C@H](O)CO | 60 cancer cell lines | cell growth | 10 µM |  | mean growth | 58.4% |
| CCn1cc(-c2cc(Cn3ccnc3)cc3c2CCN([C@H](c2cc(OC)ccn2)C2CC2)C3=O)c(C(F)(F)F)n1 | K562 | cell proliferation |  |  | GI50 | 1.5 ± 0.86 µM |
| CCCCCCCCCCCCCCCCOC(=O)C1=C(C)NC(=O)NC1c1cccc(O)c1 (stereo not drawn) | U-138 MG |  | 10 µM |  | viability reduction | ~50% |
| Clc1ccccc1C(c1ccccc1)(c1ccccc1)n1cc[n+]([Pt-2]([Cl])([Cl])[n+]2ccn(C(c3ccccc3)(c3ccccc3)c3ccccc3Cl)c2)c1 | human tumour cell line panel |  | concentration not given |  | antiproliferative activity | active |

Repeated from above:
| SMILES | cell line | test | setting | scale | quantity | value |
| --- | --- | --- | --- | --- | --- | --- |
| O=C1c2ccccc2-c2c1c1ccc([N+](=O)[O-])cc1c(=O)n2C[C@H](O)[C@@H](O)[C@H](O)[C@H](O)CO | 60 human cancer cell lines | cell growth |  |  | mean GI50 | 4.6 ± 0.53 µM |
| O=C1c2ccccc2-c2c1c1ccccc1c(=O)n2C[C@@H](O)[C@H](O)[C@H](O)CO | 60 cancer cell lines | cell growth | 10 µM |  | mean growth | 58.4% |
| CC[C@H](C)[C@@H]1NC(=O)[C@H](CC(=O)O)NC(=O)[C@H](CC(=O)O)NC(=O)CNC(=O)[C@@H]2CCCN2C(=O)[C@H](CC(=O)O)NC(=O)[C@H](Cc2ccc(O)cc2)NC(=O)[C@H]([C@@H](C)CC)NC(=O)[C@H](CCC(=O)O)NC(=O)[C@H](CCCCN)NC1=O | Caco-2 and Jurkat | cell adhesion | 180 µM | reference: control peptide | inhibition | ~70% |
| COc1ccc(Cn2cc3c(c2-c2cc(OC)c(OC)c(OC)c2)CCc2cnoc2-3)cc1OC | multidrug-resistant cells |  | concentration not given, with: paclitaxel |  | potentiation | 80.5% |
